Assay results gathered from unrelated publications.
Numbered parts are unrelated; each lists some results of a single study.

Block 1
Target: Sal-like protein 4, full length isoform A (SALL4, Homo sapiens, UniProt Q9UJQ4, residues 1-1053)
UniProt Q9UJQ4, sequence (whole entry, looked up): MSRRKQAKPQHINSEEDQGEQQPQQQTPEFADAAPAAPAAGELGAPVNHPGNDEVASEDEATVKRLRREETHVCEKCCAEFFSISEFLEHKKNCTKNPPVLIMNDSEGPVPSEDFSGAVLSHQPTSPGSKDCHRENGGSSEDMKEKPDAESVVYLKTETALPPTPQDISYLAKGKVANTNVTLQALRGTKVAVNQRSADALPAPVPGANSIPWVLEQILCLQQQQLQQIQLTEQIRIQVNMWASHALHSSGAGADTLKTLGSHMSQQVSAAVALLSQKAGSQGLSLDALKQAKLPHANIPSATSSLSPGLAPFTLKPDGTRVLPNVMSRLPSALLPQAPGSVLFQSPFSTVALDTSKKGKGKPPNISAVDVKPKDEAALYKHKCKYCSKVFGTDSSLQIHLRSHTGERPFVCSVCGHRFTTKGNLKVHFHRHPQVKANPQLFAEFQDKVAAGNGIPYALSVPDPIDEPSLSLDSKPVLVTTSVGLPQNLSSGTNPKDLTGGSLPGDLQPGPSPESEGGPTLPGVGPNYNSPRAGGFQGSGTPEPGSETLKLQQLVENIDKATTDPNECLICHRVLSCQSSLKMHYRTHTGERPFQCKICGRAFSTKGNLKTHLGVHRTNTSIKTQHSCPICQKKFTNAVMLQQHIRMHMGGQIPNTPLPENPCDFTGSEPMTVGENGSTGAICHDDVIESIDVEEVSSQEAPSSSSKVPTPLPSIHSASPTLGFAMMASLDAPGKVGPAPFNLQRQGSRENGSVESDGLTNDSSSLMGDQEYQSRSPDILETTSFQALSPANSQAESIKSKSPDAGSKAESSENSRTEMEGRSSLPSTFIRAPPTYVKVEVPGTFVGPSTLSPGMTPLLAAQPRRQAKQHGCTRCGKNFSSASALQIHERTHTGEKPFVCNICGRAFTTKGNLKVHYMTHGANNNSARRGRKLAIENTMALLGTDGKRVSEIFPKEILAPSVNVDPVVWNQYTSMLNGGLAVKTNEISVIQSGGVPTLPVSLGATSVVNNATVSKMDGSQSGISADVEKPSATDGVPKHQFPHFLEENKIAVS
Technique: universal PBM
Form: double-stranded DNA, one strand shown
Medium: in vitro
Tested at: 600 nM
Setting: 8-mer, flanks averaged, mean of replicates
Direction: higher = stronger binding
| Sequence | E-score |
| --- | --- |
| TCTAAAAA | 0.222 |
| GATTATGA | 0.406 |
| GGGTGTAC | -0.0928 |
| GTAAATGA | 0.201 |
| CCGGGGGC | -0.429 |
| TAAGACTA | 0.106 |
| AGTGGCTG | -0.256 |
| ACTGCGAC | -0.159 |
| CACGAACC | -0.22 |
| AGCCATGG | -0.191 |
| GCGCCACA | -0.267 |
| CTTCCAGA | -0.0598 |
| AAGAGGCG | -0.169 |
| ATACTAGG | 0.147 |

Block 2
Target: Interferon regulatory factor 5, full length, phosphomimetic (IRF5, Homo sapiens, UniProt Q13568-2, residues 1-514, S451D/S453D/S456D/S462D)
Technique: protein-binding microarray
Form: double-stranded DNA, one strand shown
Medium: in vitro
Tested at: 940 nM top
Setting: 60-bp whole probe
With: salmon DNA 0.4 mg/ml
Baseline: random background probes
Direction: higher = stronger binding
Shared flanks, not repeated: GCCTAGCAC … GTCTTGATTCGCTTGACGCTGCTG
| Sequence | fitted relative affinity [z-score] |
| --- | --- |
| CTCCCTTTCAGTTTTCCTCTGTGCTAG | 2.43 |
| TCAGTTACCCACCTCAGACTGTGCTAG | 0.358 |
| GGATTTCAGTTTCTCTTTCCGTGCTAG | 5.92 |
| CTCAAAGTCTTTTATGGTATTGTGCTA | -0.0253 |
| TTGGGTCTCCTTATCCTTTAGTGCTAG | 0.297 |
| GACGGTCTCCGTATCCTGACGTGCTAG | -0.0165 |
| GACGATTTCGGTACTGGAGACGTGCTA | 1.43 |
| GACGGTTCCGGGTATCGGGACGTGCTA | 1.45 |
| GACGGTATCCTTCTCCAGACGTGCTAG | 0.705 |
| GGGCCCTGCTGGGAAGTCAGGTGCTAG | -0.553 |
| GACGGTATCGGACTCGGGACGTGCTAG | 1.98 |

Block 3
Target: RNA binding protein fox-1 homolog 2, RRM domain, GST-SBP tag (RBFOX2, Homo sapiens, UniProt O43251-10, residues 100-194)
Technique: RNA Bind-n-Seq
Form: RNA
Medium: in vitro
Tested at: 365 nM
Setting: natural RNA segment, single round, ends assumed
Baseline: no-protein control
Direction: higher = stronger binding
Shared flanks, not repeated: GGGAGUUCUACAGUCCGACGAUC … UGGAAUUCUCGGGUGCCAA
Target sequence (chain): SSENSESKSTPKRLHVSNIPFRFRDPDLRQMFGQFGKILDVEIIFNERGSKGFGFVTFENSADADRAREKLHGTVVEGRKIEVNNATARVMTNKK
| Sequence | RBNS enrichment (R) |
| --- | --- |
| UUGUUCCUUUAGCAAUCAACCCCAGAAAAUAUUAAAAUGGGAUCAUACACAGAAGAUAGAAAAAUCUAGCAAAACUUCUCUUUCUGUAAGCCAGAGUCUUGUCUAUCAGA | 0.451 |
| AGUGACUCUAUUUUCCCUGAGCUUGCUCCCUGAGGACCCACCACAGCCUCAUCCUUUGCCUUGCUGGCUUUCUGGGCACGUCUUAAAGCUGAUGUGAAUCCAUCCAGGGC | 0.371 |
| GGCCAUUACUUUCUUUCUCUAAAGUCUCAGGAUGUCUGGAAGCAAGGAAAGACAAAAGACUUGAAGCACCGGGUGCAUGCUGUGUGUCACAAGUGAGGUGGAGAGUUGGC | 3.36 |
| GAGGCACGAGGUUACUGUGAUUGAUAGGAAAGAUAAAAAUGAUGUCUGUUUUUGUAGACGAAUAACCAUCAACAUGACAACAAAAUUCAUUGGGGUCUACCAGCGUGCAU | 0.458 |
| UCCUAUACUGGCAUUAGGCGUCUCCUCAUCCCUCACCCUGACCUUUCUCCUGUCCUUUUCUUGGCUGGAAGAAGUUGGCCUCCUGGGAGUGUAGUUUUCUGUUUUAAAUC | 0.396 |
| AUAUCUGAACAUUUUUGGUUAUAACUUUUUUAUUGCCUUUGGCUGUUGAUUAGUACAAGUGCAAUUUCAAAAAGAUCUUGAAAGUAAUAUAUUUAAUCAAUUAAAAUGUU | 0.866 |
| GUAUAUGCGAUCUCUACCGAGAAGCAAGCACAAAAGUAGACAAAAGUAUUAAUGAGUAUUUCCUUUCUCCAUAAGUGCAGGACUGUUACUCACUACUAAACUCUACCAAG | 0.347 |
| CUCCUUCCAGGAGGGGACCCUCAGCCCUGUGCCCCCCACCACUUCAGGCCACACCAGGUUCCCUCUGCAAGGGCCUCGGCUCAGUCGUGUGCACUUCCUCGGAGAGCCUU | 0.212 |

Further values, each from its own experiment
| Substance | target | test | test system | setting | how to read | measurement | value |
| --- | --- | --- | --- | --- | --- | --- | --- |
| PhoQ, residues 284 288 289 292 302 303 TTCLQL | PhoP, residues 12 14 15 18 19 VQALL (Escherichia coli, UniProt P23836) | Sort-seq, refers to: YFP reporter | E. coli | PhoQ-PhoP variant library, with: 10 µM Mg2+ | baseline: high Mg2+ state, higher = stronger signaling | fold induction | 2.58 |
